Published values from different studies.
A part holds a random share of what one study measured.

Sample 1
Target: Prothrombin, mature alpha-thrombin (F2, Homo sapiens, UniProt P00734)
Technique: aptamer microarray, sandwich
Form: DNA with 2'F-ANA
Sample: in vitro
Concentration: 200 nM
Notes: whole 15-mer aptamer, many near background
With: Cy3 exosite-II aptamer, 400 nM
Direction: higher = stronger binding
Oligonucleotide: GGTTGGTGTGGTTGG
Modification	mean fluorescence intensity [a.u.]
2'F-ANA at 5 7 9 10 13 14 15	63.7
2'F-ANA at 1 2 3 5 6 9 11 12 15	130
2'F-ANA at 5 6 8 9 10 11	53
2'F-ANA at 1 2 3 5 6 7 9 11	56.3
2'F-ANA at 2 6 7 10 11 15	90.4

Sample 2
Target: Interferon regulatory factor 3, full length, phosphomimetic (IRF3, Homo sapiens, UniProt Q14653, residues 1-427, S386D/S396D/S398D/S402D/T404D/S405D)
Sequence of UniProt Q14653 (whole entry, unmodified, looked up): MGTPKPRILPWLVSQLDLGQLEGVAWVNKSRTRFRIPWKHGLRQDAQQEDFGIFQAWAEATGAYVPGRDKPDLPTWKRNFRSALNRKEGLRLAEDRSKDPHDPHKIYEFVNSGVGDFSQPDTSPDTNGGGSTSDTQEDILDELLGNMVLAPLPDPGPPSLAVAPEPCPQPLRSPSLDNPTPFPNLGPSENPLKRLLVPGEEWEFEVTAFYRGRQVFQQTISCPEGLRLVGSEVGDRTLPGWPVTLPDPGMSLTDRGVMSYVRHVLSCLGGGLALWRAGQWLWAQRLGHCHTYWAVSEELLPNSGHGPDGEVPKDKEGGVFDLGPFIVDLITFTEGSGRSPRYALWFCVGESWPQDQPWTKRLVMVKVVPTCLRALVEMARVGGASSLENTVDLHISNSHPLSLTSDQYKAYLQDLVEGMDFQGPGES
Technique: protein-binding microarray
Form: double-stranded DNA, one strand shown
Sample: in vitro
Concentration: 2540 nM top
Notes: 60-bp whole probe
With: salmon DNA 0.4 mg/ml
Baseline: random background probes
Direction: higher = stronger binding
Constant ends, left off below: GCCTAGCAC … GTCTTGATTCGCTTGACGCTGCTG
Oligonucleotide	fitted relative affinity [z-score]
GATGGTATCGACTATCGGGACGTGCTA	0.322
TTACATTTTAATTTTATTTGGTGCTAG	1.67
GACGGTTTCGGGACGGGGGACGTGCTA	3.89
TACGGTATCGGGTTTCGGGACGTGCTA	2.92
GACGATTTCGGTATCGGGACGTGCTAG	4.81
GTCGATTTCAGTATCGAGACGTGCTAG	3.38

Sample 3
Target: Ras GTPase-activating protein-binding protein 1, full length (G3BP1, Homo sapiens, UniProt Q13283)
Sequence of UniProt Q13283 (whole entry, looked up): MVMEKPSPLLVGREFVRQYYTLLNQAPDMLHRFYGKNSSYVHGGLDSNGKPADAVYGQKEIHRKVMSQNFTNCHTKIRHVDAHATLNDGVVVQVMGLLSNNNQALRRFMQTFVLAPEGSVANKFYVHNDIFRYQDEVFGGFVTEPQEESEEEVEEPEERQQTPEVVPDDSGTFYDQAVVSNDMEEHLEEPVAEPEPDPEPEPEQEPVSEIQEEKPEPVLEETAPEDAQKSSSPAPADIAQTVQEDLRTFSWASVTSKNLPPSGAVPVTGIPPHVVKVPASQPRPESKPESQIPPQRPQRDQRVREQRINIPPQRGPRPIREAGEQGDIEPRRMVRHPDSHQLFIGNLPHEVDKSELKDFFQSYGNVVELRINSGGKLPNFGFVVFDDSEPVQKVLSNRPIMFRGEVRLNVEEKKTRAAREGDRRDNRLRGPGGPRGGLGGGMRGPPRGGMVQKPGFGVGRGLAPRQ
Technique: RNA Bind-n-Seq
Form: RNA
Sample: in vitro
Concentration: 200 nM
Notes: whole 134-nt RNA, ends assumed
With: 150 mM KCl
Baseline: input library
Direction: higher = stronger binding
Constant ends, left off below: GGGAGUUCUACAGUCCGACGAUC … UGGAAUUCUCGGGUGUCAAGG
Oligonucleotide	log2 enrichment
CCUGUGCUACACAUCGUAUGUACCGAAUCGGCCCCCCCGGCCCCCCCGGCCCCCCCGGGGAAAGUAUUAUGUUACGCCGUUCGGAUCUGC	0.0726
UAACUUUAGAGGAGGAUCUGAUGGAUAUGGCAGUGGACGUGGAUUUGGGGAUGGCUAUAAUGGGUAUGGAGGACGACCUGGAGGUGGCAA	0.345
UGUGCGGGAGACAGGCGCCAACGGCACCUCUUUCAGUGUCCGCAAGACAGCCUACUGCGACAUCCACACGCCUCCAGGUUCAGCACGCCG	0.0888
GUCCUGUGCUACACAUCGUAUGUACCGAAUCGGGGAAAAAGGGGUUUGGGGUUUGGGGAAAGUAUUAUGUUACGCCGUUCGGAUCUGCAC	0.675
CUCAAGUCCUGUGCUACACAUCGUAUGUACCGAAUCGGUGGUUUUUGGAAAGGAAAGUAUUAUGUUACGCCGUUCGGAUCUGCACUUCCA	-0.301

Further values, each from its own experiment
Substance	target	assay	test system	conditions	scale	measurement	result
PhoQ, residues 284 288 289 292 302 303 HSYLQF	PhoP, residues 12 14 15 18 19 LWHCS (Escherichia coli, UniProt P23836)	Sort-seq, measured: YFP reporter	E. coli	PhoQ-PhoP variant library, with: 10 µM Mg2+	baseline: high Mg2+ state, higher = stronger signaling	fold induction	4.67

Repeated from above (sample 3):
Oligonucleotide	log2 enrichment
UGUGCGGGAGACAGGCGCCAACGGCACCUCUUUCAGUGUCCGCAAGACAGCCUACUGCGACAUCCACACGCCUCCAGGUUCAGCACGCCG	0.0888
GUCCUGUGCUACACAUCGUAUGUACCGAAUCGGGGAAAAAGGGGUUUGGGGUUUGGGGAAAGUAUUAUGUUACGCCGUUCGGAUCUGCAC	0.675
